{"data": "Assay results of several laboratories", "note": "Each numbered part is a random draw from the data of one study; scales do not carry over between parts. Values joined by “and” are separate records of one study, mostly repeats; a detail may differ. Changes are numbered by the printed parent chain.", "chain of UniProt O94921 (whole entry, looked up)": "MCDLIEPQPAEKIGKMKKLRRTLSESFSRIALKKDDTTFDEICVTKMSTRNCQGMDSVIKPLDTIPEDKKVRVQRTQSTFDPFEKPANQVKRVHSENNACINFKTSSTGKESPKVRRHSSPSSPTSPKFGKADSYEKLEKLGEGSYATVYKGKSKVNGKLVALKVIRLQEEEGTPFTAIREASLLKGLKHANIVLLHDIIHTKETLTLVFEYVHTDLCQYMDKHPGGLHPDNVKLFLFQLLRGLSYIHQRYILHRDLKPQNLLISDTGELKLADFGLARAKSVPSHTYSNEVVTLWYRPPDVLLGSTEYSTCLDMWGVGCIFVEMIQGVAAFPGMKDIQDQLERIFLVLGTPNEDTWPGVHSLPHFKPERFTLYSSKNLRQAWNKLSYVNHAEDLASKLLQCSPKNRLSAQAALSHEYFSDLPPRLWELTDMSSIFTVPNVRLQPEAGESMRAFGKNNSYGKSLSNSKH", "chain of UniProt Q15746 (whole entry, looked up)": "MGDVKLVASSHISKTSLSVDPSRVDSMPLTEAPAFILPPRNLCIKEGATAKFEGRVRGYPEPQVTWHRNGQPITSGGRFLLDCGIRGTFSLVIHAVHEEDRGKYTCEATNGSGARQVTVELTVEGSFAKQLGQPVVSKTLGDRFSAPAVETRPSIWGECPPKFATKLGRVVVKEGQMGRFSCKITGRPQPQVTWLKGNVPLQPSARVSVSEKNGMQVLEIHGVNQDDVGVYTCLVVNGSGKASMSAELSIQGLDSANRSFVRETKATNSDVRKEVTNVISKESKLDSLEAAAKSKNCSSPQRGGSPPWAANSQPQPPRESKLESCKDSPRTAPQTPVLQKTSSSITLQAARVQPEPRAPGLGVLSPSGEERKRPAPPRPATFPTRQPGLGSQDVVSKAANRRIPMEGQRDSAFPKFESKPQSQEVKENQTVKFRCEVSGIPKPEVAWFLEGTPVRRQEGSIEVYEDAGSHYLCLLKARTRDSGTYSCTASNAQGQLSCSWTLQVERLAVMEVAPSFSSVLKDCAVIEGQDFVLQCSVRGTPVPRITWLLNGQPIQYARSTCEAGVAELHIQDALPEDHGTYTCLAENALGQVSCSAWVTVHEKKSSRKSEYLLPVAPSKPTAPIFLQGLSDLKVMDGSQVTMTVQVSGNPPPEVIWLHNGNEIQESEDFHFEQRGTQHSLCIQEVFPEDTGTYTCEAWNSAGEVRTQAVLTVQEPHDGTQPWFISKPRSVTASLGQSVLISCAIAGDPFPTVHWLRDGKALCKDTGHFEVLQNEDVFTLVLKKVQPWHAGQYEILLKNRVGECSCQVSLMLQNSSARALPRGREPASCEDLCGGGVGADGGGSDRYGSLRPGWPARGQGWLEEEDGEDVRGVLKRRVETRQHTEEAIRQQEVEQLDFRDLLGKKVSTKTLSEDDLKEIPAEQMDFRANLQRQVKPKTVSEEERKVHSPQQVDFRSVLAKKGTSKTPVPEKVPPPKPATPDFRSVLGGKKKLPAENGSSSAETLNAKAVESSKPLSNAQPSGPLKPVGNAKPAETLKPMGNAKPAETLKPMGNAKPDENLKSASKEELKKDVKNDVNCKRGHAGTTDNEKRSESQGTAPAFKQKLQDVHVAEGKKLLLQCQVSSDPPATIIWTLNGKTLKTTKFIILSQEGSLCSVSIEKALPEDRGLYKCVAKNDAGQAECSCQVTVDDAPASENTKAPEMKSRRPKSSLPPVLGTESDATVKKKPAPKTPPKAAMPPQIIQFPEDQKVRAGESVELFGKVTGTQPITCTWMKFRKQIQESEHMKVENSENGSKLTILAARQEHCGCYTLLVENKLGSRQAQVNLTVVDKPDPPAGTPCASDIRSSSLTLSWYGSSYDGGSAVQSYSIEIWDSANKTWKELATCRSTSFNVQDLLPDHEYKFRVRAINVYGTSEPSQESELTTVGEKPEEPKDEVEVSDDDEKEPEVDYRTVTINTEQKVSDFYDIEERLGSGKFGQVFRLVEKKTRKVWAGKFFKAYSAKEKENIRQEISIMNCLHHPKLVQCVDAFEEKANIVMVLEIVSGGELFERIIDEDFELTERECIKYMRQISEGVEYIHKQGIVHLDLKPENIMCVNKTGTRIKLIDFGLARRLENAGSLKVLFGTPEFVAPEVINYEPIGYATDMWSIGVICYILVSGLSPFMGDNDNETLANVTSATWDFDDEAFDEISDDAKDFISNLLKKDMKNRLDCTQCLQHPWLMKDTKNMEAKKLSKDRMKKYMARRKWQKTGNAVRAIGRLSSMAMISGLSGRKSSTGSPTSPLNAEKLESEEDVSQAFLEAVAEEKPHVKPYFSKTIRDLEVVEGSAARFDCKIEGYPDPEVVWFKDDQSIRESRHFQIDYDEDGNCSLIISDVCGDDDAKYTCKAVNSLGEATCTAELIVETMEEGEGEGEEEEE", "chain of UniProt Q8WXR4 (whole entry, looked up)": "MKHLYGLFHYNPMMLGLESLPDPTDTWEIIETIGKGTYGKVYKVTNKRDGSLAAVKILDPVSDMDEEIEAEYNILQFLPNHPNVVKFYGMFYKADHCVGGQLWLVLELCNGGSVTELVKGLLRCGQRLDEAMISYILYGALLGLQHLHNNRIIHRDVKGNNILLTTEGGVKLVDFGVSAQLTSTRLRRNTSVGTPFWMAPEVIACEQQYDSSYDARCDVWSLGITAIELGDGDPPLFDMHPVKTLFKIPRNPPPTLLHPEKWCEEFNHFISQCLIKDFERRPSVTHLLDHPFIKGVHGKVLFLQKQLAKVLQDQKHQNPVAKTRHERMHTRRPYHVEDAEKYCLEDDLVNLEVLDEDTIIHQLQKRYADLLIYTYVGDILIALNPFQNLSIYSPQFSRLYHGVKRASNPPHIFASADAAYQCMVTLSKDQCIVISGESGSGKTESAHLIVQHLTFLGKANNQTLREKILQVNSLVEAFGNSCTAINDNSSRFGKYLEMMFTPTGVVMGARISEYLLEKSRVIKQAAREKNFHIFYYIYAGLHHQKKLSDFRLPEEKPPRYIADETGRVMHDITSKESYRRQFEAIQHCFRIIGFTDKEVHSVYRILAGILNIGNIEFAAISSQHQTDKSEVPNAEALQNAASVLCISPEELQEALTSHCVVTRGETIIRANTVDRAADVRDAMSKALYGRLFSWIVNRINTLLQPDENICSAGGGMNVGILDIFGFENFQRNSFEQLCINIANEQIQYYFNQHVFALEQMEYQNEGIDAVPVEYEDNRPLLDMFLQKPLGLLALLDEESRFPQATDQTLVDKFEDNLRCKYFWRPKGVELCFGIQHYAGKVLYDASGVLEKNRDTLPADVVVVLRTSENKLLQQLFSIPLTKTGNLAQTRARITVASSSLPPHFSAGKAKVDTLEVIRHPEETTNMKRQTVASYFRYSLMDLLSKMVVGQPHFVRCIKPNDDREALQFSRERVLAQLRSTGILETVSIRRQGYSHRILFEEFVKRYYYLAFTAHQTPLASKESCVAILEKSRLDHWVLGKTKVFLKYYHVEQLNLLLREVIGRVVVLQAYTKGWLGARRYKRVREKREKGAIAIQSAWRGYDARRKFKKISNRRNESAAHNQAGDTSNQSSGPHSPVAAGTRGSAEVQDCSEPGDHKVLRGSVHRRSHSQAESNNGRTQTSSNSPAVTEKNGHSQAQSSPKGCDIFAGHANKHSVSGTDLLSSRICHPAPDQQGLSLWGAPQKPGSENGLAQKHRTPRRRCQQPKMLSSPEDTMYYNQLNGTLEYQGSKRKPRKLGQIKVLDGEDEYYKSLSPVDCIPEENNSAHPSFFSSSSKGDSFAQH", "chain of UniProt Q86Y07 (whole entry, looked up)": "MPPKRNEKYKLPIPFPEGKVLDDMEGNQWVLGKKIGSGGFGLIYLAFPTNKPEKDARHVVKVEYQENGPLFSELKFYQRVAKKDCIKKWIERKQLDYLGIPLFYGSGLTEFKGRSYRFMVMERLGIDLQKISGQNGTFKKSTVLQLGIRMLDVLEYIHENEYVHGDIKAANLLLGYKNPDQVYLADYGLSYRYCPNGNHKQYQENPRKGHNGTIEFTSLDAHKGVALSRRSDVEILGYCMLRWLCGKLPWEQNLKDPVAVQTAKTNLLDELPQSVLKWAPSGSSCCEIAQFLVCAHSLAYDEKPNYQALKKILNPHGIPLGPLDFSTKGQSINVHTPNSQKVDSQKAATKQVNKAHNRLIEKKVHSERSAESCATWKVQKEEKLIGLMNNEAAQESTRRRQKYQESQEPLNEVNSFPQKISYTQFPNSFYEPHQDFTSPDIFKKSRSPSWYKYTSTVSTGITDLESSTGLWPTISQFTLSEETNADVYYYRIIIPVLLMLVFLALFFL", "chain of UniProt Q8TDX7 (whole entry, looked up)": "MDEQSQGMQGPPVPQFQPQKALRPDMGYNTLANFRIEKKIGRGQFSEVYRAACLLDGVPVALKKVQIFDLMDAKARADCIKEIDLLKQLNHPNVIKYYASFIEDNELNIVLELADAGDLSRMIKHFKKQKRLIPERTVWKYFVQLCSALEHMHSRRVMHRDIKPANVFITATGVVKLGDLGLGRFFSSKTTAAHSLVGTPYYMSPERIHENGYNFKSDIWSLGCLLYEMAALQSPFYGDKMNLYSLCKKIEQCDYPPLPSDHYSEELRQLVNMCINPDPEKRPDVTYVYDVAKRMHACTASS", "chain of UniProt P27037 (whole entry, looked up)": "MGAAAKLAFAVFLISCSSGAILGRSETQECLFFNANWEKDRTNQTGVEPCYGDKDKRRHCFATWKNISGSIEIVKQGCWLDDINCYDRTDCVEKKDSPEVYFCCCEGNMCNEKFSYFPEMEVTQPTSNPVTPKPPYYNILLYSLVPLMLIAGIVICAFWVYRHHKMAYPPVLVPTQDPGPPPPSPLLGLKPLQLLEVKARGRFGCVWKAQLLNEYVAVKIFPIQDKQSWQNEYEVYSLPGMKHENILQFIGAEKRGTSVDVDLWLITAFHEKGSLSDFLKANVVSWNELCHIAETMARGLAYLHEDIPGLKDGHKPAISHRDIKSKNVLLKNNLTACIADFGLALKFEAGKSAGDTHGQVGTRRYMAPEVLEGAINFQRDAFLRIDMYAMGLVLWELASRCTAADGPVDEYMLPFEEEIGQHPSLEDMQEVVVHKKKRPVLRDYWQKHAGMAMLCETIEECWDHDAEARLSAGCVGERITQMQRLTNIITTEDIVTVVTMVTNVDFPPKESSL"}
{"data": "Block 1", "host": "human", "matrix": "microsomes or S9", "tested at": "2 µM", "time": "0.5 h"}
{"Compound": "COc1ccc(-c2c(-c3ccccc3)nn(-c3ccccc3OC)c2N)cc1OC", "remaining compound": "68.3%"}
{"Compound": "O=C1[C@@H]2CCCN2/C(=N/c2ccccc2)N1c1ccccc1", "remaining compound": "67%"}
{"Compound": "Cc1ccc2oc(=O)n([C@H]3c4cc(Br)cnc4OC(C)(C)[C@@H]3O)c2c1", "remaining compound": "89%"}
{"Compound": "CCn1nc(C)c(C2CC(=O)Nc3nc(N4CCCCC4)nc(O)c32)c1C (stereo not drawn)", "remaining compound": "> 99.9%"}
{"Compound": "COc1ccc(Cl)cc1NC(=O)c1cc2c(=O)oc3ccccc3c2n1C", "remaining compound": "80.4%"}
{"data": "Block 2", "target": "OGT, full length, His-tagged (human)", "method": "phage display, sequencing", "matrix": "in vitro", "tested at": "1 µg OGT", "setting": "single substitutions, 15-mer displayed peptide, unchanged parent 5.27", "relative to": "input library", "reading": "higher = stronger binding", "starting sequence": "peptide; GDFPVMFMPKYSIIY; partner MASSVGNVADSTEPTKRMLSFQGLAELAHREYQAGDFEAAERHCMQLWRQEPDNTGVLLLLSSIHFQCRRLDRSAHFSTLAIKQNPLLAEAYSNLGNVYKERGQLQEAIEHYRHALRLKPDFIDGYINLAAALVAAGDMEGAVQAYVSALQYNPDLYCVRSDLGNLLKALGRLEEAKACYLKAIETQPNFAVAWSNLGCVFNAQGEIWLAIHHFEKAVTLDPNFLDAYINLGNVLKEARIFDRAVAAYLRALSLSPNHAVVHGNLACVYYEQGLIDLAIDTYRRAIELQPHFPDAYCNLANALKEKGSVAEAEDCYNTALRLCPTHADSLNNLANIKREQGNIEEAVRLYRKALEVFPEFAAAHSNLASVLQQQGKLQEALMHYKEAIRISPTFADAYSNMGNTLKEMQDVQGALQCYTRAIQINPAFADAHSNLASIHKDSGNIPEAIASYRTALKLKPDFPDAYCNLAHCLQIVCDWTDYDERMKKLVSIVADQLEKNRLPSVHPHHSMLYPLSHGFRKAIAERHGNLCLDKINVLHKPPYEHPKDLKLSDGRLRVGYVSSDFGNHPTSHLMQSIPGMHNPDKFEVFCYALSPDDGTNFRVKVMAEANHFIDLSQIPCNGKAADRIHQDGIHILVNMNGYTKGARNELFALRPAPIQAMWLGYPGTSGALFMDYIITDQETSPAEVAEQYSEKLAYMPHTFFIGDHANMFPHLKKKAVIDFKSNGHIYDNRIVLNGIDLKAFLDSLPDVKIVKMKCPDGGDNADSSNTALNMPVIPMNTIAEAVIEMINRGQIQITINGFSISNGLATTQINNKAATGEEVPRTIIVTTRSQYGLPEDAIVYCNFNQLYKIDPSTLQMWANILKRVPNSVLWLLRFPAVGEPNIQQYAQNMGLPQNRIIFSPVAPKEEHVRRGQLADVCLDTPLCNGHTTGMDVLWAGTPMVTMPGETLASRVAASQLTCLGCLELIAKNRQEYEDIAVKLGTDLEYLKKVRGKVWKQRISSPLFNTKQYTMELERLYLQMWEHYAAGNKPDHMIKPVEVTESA"}
{"Change": "Y11F", "fold enrichment [fold]": 3.8}
{"Change": "I13S", "fold enrichment [fold]": 0.841}
{"Change": "M8I", "fold enrichment [fold]": 1.24}
{"Change": "Y15R", "fold enrichment [fold]": 0.993}
{"Change": "S12F", "fold enrichment [fold]": 6}
{"Change": "I13L", "fold enrichment [fold]": 1.28}
{"Change": "F3A", "fold enrichment [fold]": 4.96}
{"Change": "I14W", "fold enrichment [fold]": 3.14}
{"data": "Block 3", "Structure (SMILES)": "COc1cc2ncc(-c3ccccc3)nc2cc1OC", "observed": "enzyme activity", "mode": "inhibitor", "tested at": "0.5 µM", "relative to": "control"}
{"target": "FGFR4 (Homo sapiens, UniProt P22455)", "remaining activity": "78.7%"}
{"target": "SRPK3 (Homo sapiens, UniProt Q9UPE1)", "remaining activity": "91.1%"}
{"target": "EPHA7 (Homo sapiens, UniProt Q15375)", "remaining activity": "94.7%"}
{"target": "MYLK (Homo sapiens, UniProt Q15746)", "remaining activity": "97.4%"}
{"target": "Aurora kinase C (AURKC, Homo sapiens, UniProt Q9UQB9)", "remaining activity": "90.1%"}
{"data": "Block 4", "Structure (SMILES)": "C[C@@H]1CN(c2cc(-c3nn(C)c4ccc(OC5(C)CC5)cc34)ncn2)C[C@H](C)O1", "method": "competition with immobilised ligand", "tested at": "1 µM"}
{"target": "ACVR2A (Homo sapiens, UniProt P27037)", "test": "cell-free assay", "remaining binding [%]": 100}
{"target": "RIOK3 (Homo sapiens, UniProt O14730)", "test": "cell-free assay", "remaining binding [%]": 100}
{"target": "Aurora kinase A (AURKA, Homo sapiens, UniProt O14965)", "test": "cell-free assay", "remaining binding [%]": 100}
{"target": "DAPK3 (Homo sapiens, UniProt O43293)", "test": "cell-free assay", "remaining binding [%]": 89}
{"target": "SGK2 (Homo sapiens, UniProt Q9HBY8)", "test": "cell-free assay", "remaining binding [%]": 58}
{"target": "EGFR (Homo sapiens, UniProt P00533, del747-752/P753S)", "test": "cell-free assay", "remaining binding [%]": 92}
{"target": "CILK1 (Homo sapiens, UniProt Q9UPZ9)", "test": "cell-free assay", "remaining binding [%]": 78}
{"target": "FLT3 (Homo sapiens, UniProt P36888, ITD)", "test": "cell-free assay", "remaining binding [%]": 91}
{"target": "NEK7 (Homo sapiens, UniProt Q8TDX7)", "test": "cell-free assay", "remaining binding [%]": 79}
{"target": "FLT1 (Homo sapiens, UniProt P17948)", "test": "cell-free assay", "remaining binding [%]": 95}
{"target": "CDK14 (Homo sapiens, UniProt O94921)", "test": "cell-free assay", "remaining binding [%]": 100}
{"target": "ERBB4 (Homo sapiens, UniProt Q15303)", "test": "cell-free assay", "remaining binding [%]": 96}
{"target": "BLK (Homo sapiens, UniProt P51451)", "test": "cell-free assay", "remaining binding [%]": 95}
{"target": "KIT (Homo sapiens, UniProt P10721, D816H)", "test": "cell-free assay", "remaining binding [%]": 64}
{"target": "FER (Homo sapiens, UniProt P16591)", "test": "cell-free assay", "remaining binding [%]": 100}
{"target": "VRK2 (Homo sapiens, UniProt Q86Y07)", "test": "cell-free assay", "remaining binding [%]": 73}
{"target": "EPHB2 (Homo sapiens, UniProt P29323)", "test": "cell-free assay", "remaining binding [%]": 95}
{"target": "FLT3 (Homo sapiens, UniProt P36888, D835V)", "test": "cell-free assay", "remaining binding [%]": 86}
{"target": "Ribosomal protein S6 kinase alpha-3, C-terminal kinase domain (RPS6KA3, Homo sapiens, UniProt P51812)", "test": "cell-free assay", "remaining binding [%]": 91}
{"target": "STK32A (Homo sapiens, UniProt Q8WU08)", "test": "cell-free assay", "remaining binding [%]": 78}
{"target": "Myosin-IIIb (MYO3B, Homo sapiens, UniProt Q8WXR4)", "test": "binding", "remaining binding [%]": 100}
{"data": "Single results of other studies"}
{"Compound": "CN1CCN(C(=O)c2ccc(NC(=O)Nc3ccc(N(C)c4ccnc(Nc5ccc(CS(C)(=O)=O)cc5)n4)cc3)cc2)CC1", "tested on": "FLT3 ITD human", "test": "binding, KINOMEscan competition", "conditions": "1000 nM", "endpoint": "percent of control", "result": "0.3%"}
{"Compound": "O=C1CCC(N2Cc3cc(C4CCN(Cc5ccccc5)CC4)ccc3C2=O)C(=O)N1 (stereo not drawn)", "test system": "ICR mice, male, plasma", "conditions": "intravenous, 1.0 mg/kg", "endpoint": "steady-state volume of distribution", "result": "9.76 L/kg and 9.16 L/kg"}
{"Compound": "O=C(Nc1ccccc1)Nc1cccc(Oc2ccc3nccn3n2)c1", "tested on": "FLT3 ITD human", "test": "binding, KINOMEscan competition", "conditions": "1000 nM", "endpoint": "percent of control", "result": "100%"}
{"note": "Repeated from above (block 1):"}
{"Compound": "COc1ccc(-c2c(-c3ccccc3)nn(-c3ccccc3OC)c2N)cc1OC", "remaining compound": "68.3%"}
{"Compound": "O=C1[C@@H]2CCCN2/C(=N/c2ccccc2)N1c1ccccc1", "remaining compound": "67%"}
{"Compound": "Cc1ccc2oc(=O)n([C@H]3c4cc(Br)cnc4OC(C)(C)[C@@H]3O)c2c1", "remaining compound": "89%"}
{"Compound": "CCn1nc(C)c(C2CC(=O)Nc3nc(N4CCCCC4)nc(O)c32)c1C (stereo not drawn)", "remaining compound": "> 99.9%"}
{"Compound": "COc1ccc(Cl)cc1NC(=O)c1cc2c(=O)oc3ccccc3c2n1C", "remaining compound": "80.4%"}
